Published values collected from several papers.
Each line is one published result; not all experiments were run side by side. Numbers after ± are the reported error.
HCK Y411F: Tyrosine-protein kinase HCK (HCK, Homo sapiens, UniProt P08631, Y411F)
tmk: Thymidylate kinase (tmk, Mycobacterium tuberculosis, UniProt P9WKE1)
USP5: Ubiquitin carboxyl-terminal hydrolase 5 (USP5, Homo sapiens, UniProt P45974)
STK24: Serine/threonine-protein kinase 24 (STK24, Homo sapiens, UniProt Q9Y6E0)

CC(C)(C)n1nc(-c2ccc(Cl)cc2)c2c(N)ncnc21  bound fraction (HCK Y411F; concentration not given): 86%
CC(C)(C)C(=O)OCOP(=O)(OCOC(=O)C(C)(C)C)C1CCCN(O)C1=O (stereo not drawn)  log TGI (SNB-19): -4.54 log M
CCCCCn1cc(C(=O)c2ccc3ccccc3c2)c2ccccc21  Emax (CNR1 (Homo sapiens, UniProt P21554, F170A); Gαi1 engagement, agonist, BRET; baseline: reference agonist at wild-type CB1): 26.9 ± 5.1%
CS(C)(=O)=Nc1ccc(-c2ccc(-c3nc4cc(O[C@@H]5CO[C@H]6[C@@H]5OC[C@H]6O)[nH]c4cc3F)cc2)cc1  inhibition (TLK1 (Homo sapiens, UniProt Q9UKI8); enzyme activity, inhibitor; 10 µM): -15%
CCOC(=O)C1=C(C)NC(=NN=C2C(=O)Nc3ccc(C)cc32)NC1c1ccc(F)cc1 (stereo not drawn)  inhibition (tmk; enzyme activity, inhibitor, absorbance; 10 µg/mL): 85.9%
CC[C@H](C)[C@H](NC(=O)[C@H](CO)NC(=O)[C@H](Cc1ccc(O)cc1)NC(=O)[C@H](Cc1ccc(O)cc1)NC(=O)[C@H](CC(N)=O)NC(=O)CNC(=O)[C@H](CO)NC(=O)[C@H](Cc1ccc(O)cc1)NC(=O)[C@H](CO)NC(=O)[C@H](CO)NC(=O)[C@H](CC(N)=O)NC(=O)COCCOCCNC(=O)CN1CCN(CC(=O)O)CCN(CC(=O)O)CCN(CC(=O)O)CC1)C(=O)N[C@@H](CC(C)C)C(N)=O [copper-64 labelled]  tumour uptake (dynamic PET; KPC mouse, pancreatic cancer model, tumor; intravenous, 27.5 min, 49 days after tamoxifen): 6.73 %ID/mL
CC(C)CC(C(=O)N1CC2(CC1C#N)C(=O)Nc1ccccc12)N(C)C(=O)c1cc2c(F)cc(F)c(F)c2[nH]1 (stereo not drawn)  remaining activity (Replicase polyprotein 1ab, 3C-like protease (rep, Human coronavirus 229E, UniProt P0C6X1); enzyme activity; 0.01001 µM): 1.6%
CCOC(=O)C1=C(C)NC(=S)NC1c1ccc([N+](=O)[O-])o1 (racemic)  inhibition (tmk; enzyme activity, inhibitor, absorbance; 0.1 µg/mL): 42.5%
CCCCCn1cc(C(=O)c2cccc3c2CC(C)(C)C3)c2ccccc21  Emax (CNR1 (Homo sapiens, UniProt P21554, F177A); Gαi1 engagement, agonist, BRET; baseline: reference agonist at wild-type CB1): 20.7 ± 11.1%
N#Cc1cn([C@@H]2O[C@H](CSCC[C@H](N)C(=O)O)[C@@H](O)[C@H]2O)c2ncnc(N)c12  Hill slope (Replicase polyprotein 1ab, nsp10-nsp16 complex (rep, Human coronavirus 229E, UniProt P0C6X1)): -1.1
Cc1nc2cccc(OCC(C)(C)C(=O)NC(C)C)c2c(N)c1C(=O)[O-].[Na+]  revertant colonies per plate (Salmonella typhimurium; TA100; 5.0 mg per plate, without S9, preincubation): 125 ± 11
COc1ccccc1-c1n[nH]c2nc(NC3CCN(C(=O)Cc4ccc(F)cc4F)CC3)ncc12  relative abundance (bead binding, competition bead pull-down, refers to: LINJ.26.1590; Leishmania donovani extract; 10 µM; baseline: vehicle): 0.93
COc1ccc(CC2C(=O)NC(=O)N(c3cccc(Cl)c3)C2=O)cc1 (stereo not drawn)  inhibition (USP5; enzyme activity, inhibitor; 17 µM): 66%
O=C1NC(=O)c2c1c1cc(F)c[n+]3c1c1c2c2cc(O)ccc2[n]1[Ru-4]312([N]=C=S)[S+]3CC[S+]1CC[S+]2CC3 (stereo not drawn)  remaining activity (DAPK2 (Homo sapiens, UniProt Q9UIK4); enzyme activity; 100 nM, human enzyme, with: 10 µM ATP; baseline: untreated): 2%
CC(C)[C@H]1NC(=O)C[C@H]2/C=C/CCSSC[C@@H](NC1=O)C(=O)N[C@H](Cc1cccc3ccccc13)C(=O)NCC(=O)O2  inhibition (STK24; enzyme activity, inhibitor; 10 µM): 3.4%
CCCCCn1cc(C(=O)c2cccc3ccccc23)c2ccccc21  Emax (CNR1 (Homo sapiens, UniProt P21554, I267L/L193I/L359V); cAMP inhibition, agonist, CAMYEL BRET biosensor; with: forskolin 10 µM; baseline: reference agonist at wild type): 97.7 ± 2.1%
CC(=O)NCCCC[C@H](NC(=O)[C@H](CCCNC(=N)N)NC(=O)[C@H](C)N)C(=O)N[C@@H](CO)C(=O)N[C@H](C(=O)NCC(=O)NCC(=O)N[C@@H](CCCCN)C(=O)N[C@@H](C)C(=O)N1CCC[C@H]1C(=O)N[C@@H](CCCNC(=N)N)C(=O)N[C@@H](CCCCN)C(=O)N[C@@H](CCC(N)=O)C(=O)O)[C@@H](C)O  ΔTm (YEATS domain-containing protein 4 (Homo sapiens, UniProt O95619, E109A); differential scanning fluorimetry; with: 50 µM peptide; baseline: buffer-only reference): 0.19 ± 0.03 °C
O=C(NC1CCN(c2ncnc3[nH]cnc23)CC1)c1cccc(NS(=O)(=O)c2ccc(C(F)(F)F)cc2)c1  inhibition (Replicase polyprotein 1ab, nsp14 (rep, Human coronavirus 229E, UniProt P0C6X1); enzyme activity; 0.04883 µM): 1.74%
COc1ccccc1C(C[N+](=O)[O-])c1c(-c2ccccc2)[nH]c2ccccc12 (stereo not drawn)  Emax (CNR1 (Homo sapiens, UniProt P21554, I245A); Gαi1-γ2 dissociation, BRET): 57 ± 5.08%
Nc1ccc(/C=C/C(=O)N2CCc3c(oc4c(-c5ccc(F)cc5)cc(-c5ccc(C(=O)N6CCC(F)(F)CC6)cn5)cc34)C2)cn1  remaining binding (MAP2K2 (Homo sapiens, UniProt P36507); binding, competition with immobilised ligand; 1 µM): 86%
Cc1ccc(C(=O)Nc2ccc(CN3CCN(C)CC3)c(C(F)(F)F)c2)cc1C#Cc1cnc2cccnn12  bound fraction (SRC (Gallus gallus, UniProt P00523); concentration not given): 97%
COc1ccccc1-c1n[nH]c2nc(N[C@H]3CC[C@H](NS(=O)(=O)CC(C)C)CC3)ncc12  relative abundance (bead binding, competition bead pull-down, refers to: LINJ.35.3130; Leishmania donovani extract; 10 µM; baseline: vehicle): 1.06
CC[C@H](C)[C@@H]1NC(=O)[C@H](CC(=O)O)NC(=O)[C@H]([C@@H](C)O)NC(=O)[C@@H]2CSSC[C@@H]3NC(=O)[C@H](CC(C)C)NC(=O)[C@H](CC(N)=O)NC(=O)[C@H](CC(C)C)NC(=O)[C@H](CCCNC(=N)N)NC(=O)[C@H](Cc4ccc(O)cc4)NC(=O)[C@H](CC(N)=O)NC(=O)[C@H](CCSC)NC(=O)[C@H](CO)NC(=O)[C@H]([C@@H](C)O)NC(=O)[C@H](CCCNC(=N)N)NC(=O)[C@H](CSSC[C@H](NC(=O)[C@H]([C@@H](C)O)NC(=O)[C@H](CCCCN)NC(=O)[C@H](CCCNC(=N)N)NC3=O)C(=O)NCC(=O)N[C@@H](CO)C(=O)N[C@H](C(=O)O)CSSC[C@H](NC(=O)[C@@H](NC(=O)[C@@H](N)CCCNC(=N)N)[C@@H](C)O)C(=O)N[C@@H](CCCCN)C(=O)N[C@@H](CC(=O)O)C(=O)N[C@@H](CC(C)C)C(=O)N[C@@H]([C@@H](C)CC)C(=O)N3CCC[C@H]3C(=O)N[C@@H](C(C)C)C(=O)N[C@@H](CO)C(=O)N[C@@H](CCC(=O)O)C(=O)N2)NC(=O)[C@H](CCCNC(=N)N)NC1=O  koff (KCNA3 (Homo sapiens, UniProt P22001); blocker, two-electrode voltage clamp; Xenopus oocytes; membrane potential 0 mV): 0.67 ± 0.08 s⁻¹
Nc1ncnc2c1c(-c1ccc(Oc3ccccc3)cc1)nn2C1CCCC1  bound fraction (HCK Y411F; concentration not given): 98%
CCOc1cc(C=C2C(=O)NC(=O)NC2=O)cc(Cl)c1O  inhibition (USP5; enzyme activity, inhibitor; 17 µM): 34%
CCCCCn1cc(C(=O)c2ccc3c(c2)CC(C)(C)C3)c2ccccc21  Emax (CNR1 (Homo sapiens, UniProt P21554, H178A); Gαi1 engagement, agonist, BRET; baseline: reference agonist at wild-type CB1): 19.1 ± 7.3%
O=C1NC2(CC2)COc2ncc(F)cc2[C@H]2COCCN2c2ccn3ncc1c3n2  total cholesterol (Sprague-Dawley rat, male, serum; oral, 5 mg/kg/day, 4 weeks daily, end of treatment): 1.53 ± 0.21 mmol/L
Cc1sc2c(c1C)C(c1ccc(Cl)cc1)=N[C@@H](CC(=O)OC(C)(C)C)c1nnc(C)n1-2  binding stoichiometry (Bromodomain testis-specific protein, BD1 (BRDT, Homo sapiens, UniProt Q58F21); isothermal titration calorimetry; concentration not given, 15 °C, reverse titration): 1.06 ± 0.002
CN(C)[C@H]1C[C@@]23CC[C@@]4(O2)C(=CC[C@]2(C)[C@@H](c5ccc6ccncc6c5)CC[C@H]24)C=C3[C@@H](O)[C@@H]1O  inhibition (STK24; ATP probe labelling, inhibitor, KiNativ profiling; 0.1 µM): -1.7%
CCOC(=O)C1=C(C)NC(=NN=C2C(=O)Nc3ccccc32)NC1c1ccc(F)cc1 (stereo not drawn)  inhibition (tmk; enzyme activity, inhibitor, absorbance; 0.01 µg/mL): 32.7%
Cc1ccc2c(C(C[N+](=O)[O-])c3cccs3)c(-c3ccccc3)[nH]c2c1 (stereo not drawn)  Emax (CNR1 (Homo sapiens, UniProt P21554, I245M); Gαi1-γ2 dissociation, BRET): 140 ± 9.45%
Cc1cn(C2CC(O)C(COP(=O)(O)O)O2)c(=O)[nH]c1=O (stereo not drawn)  inhibition (tmk; enzyme activity, inhibitor, absorbance; 10 µg/mL): 89%
CC(C)CC(O)(CC(C)C)c1cn(C(=O)N2CCCC2)nn1  ratio of ratios (Presenilin-associated rhomboid-like protein, mitochondrial (Parl, Mus musculus, UniProt Q5XJY4); enzyme activity, inhibitor, refers to: Parl; mouse, brain; i.p., 0.8 mg/kg, 4 h, protein level; baseline: vehicle): 0.67

For quick reference, copied from above:
COc1ccccc1-c1n[nH]c2nc(NC3CCN(C(=O)Cc4ccc(F)cc4F)CC3)ncc12  relative abundance (bead binding, competition bead pull-down, refers to: LINJ.26.1590; Leishmania donovani extract; 10 µM; baseline: vehicle): 0.93
COc1ccc(CC2C(=O)NC(=O)N(c3cccc(Cl)c3)C2=O)cc1 (stereo not drawn)  inhibition (USP5; enzyme activity, inhibitor; 17 µM): 66%
O=C1NC(=O)c2c1c1cc(F)c[n+]3c1c1c2c2cc(O)ccc2[n]1[Ru-4]312([N]=C=S)[S+]3CC[S+]1CC[S+]2CC3 (stereo not drawn)  remaining activity (DAPK2 (Homo sapiens, UniProt Q9UIK4); enzyme activity; 100 nM, human enzyme, with: 10 µM ATP; baseline: untreated): 2%
CC(C)[C@H]1NC(=O)C[C@H]2/C=C/CCSSC[C@@H](NC1=O)C(=O)N[C@H](Cc1cccc3ccccc13)C(=O)NCC(=O)O2  inhibition (STK24; enzyme activity, inhibitor; 10 µM): 3.4%
CCCCCn1cc(C(=O)c2cccc3ccccc23)c2ccccc21  Emax (CNR1 (Homo sapiens, UniProt P21554, I267L/L193I/L359V); cAMP inhibition, agonist, CAMYEL BRET biosensor; with: forskolin 10 µM; baseline: reference agonist at wild type): 97.7 ± 2.1%
